Results from different studies.
Lines come from different studies, so protocols differ.
CDK5 with p35: Cyclin-dependent kinase 5, with p35 (CDK5, Homo sapiens, UniProt Q00535)
Chain of UniProt Q00535 (whole entry, looked up): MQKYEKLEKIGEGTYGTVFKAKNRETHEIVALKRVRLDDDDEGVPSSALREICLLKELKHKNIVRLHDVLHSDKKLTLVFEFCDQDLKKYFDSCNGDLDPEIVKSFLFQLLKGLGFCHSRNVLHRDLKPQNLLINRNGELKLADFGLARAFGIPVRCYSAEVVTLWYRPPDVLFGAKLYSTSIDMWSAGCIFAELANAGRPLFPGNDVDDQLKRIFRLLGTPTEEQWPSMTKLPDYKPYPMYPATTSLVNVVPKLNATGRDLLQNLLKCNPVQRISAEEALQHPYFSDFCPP
CTSL: Procathepsin L (CTSL, Homo sapiens, UniProt P07711)
Chain of UniProt P07711 (whole entry, looked up): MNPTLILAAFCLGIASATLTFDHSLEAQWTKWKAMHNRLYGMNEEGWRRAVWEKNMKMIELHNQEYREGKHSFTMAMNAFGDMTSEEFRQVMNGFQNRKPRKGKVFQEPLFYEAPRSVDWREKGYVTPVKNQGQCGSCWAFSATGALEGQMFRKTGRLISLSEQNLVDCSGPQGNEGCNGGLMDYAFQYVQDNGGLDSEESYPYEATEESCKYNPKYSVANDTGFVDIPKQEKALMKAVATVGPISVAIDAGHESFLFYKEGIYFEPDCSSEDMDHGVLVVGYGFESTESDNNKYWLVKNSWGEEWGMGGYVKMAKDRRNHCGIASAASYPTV
Chain of UniProt P00519 (whole entry, unmodified, looked up): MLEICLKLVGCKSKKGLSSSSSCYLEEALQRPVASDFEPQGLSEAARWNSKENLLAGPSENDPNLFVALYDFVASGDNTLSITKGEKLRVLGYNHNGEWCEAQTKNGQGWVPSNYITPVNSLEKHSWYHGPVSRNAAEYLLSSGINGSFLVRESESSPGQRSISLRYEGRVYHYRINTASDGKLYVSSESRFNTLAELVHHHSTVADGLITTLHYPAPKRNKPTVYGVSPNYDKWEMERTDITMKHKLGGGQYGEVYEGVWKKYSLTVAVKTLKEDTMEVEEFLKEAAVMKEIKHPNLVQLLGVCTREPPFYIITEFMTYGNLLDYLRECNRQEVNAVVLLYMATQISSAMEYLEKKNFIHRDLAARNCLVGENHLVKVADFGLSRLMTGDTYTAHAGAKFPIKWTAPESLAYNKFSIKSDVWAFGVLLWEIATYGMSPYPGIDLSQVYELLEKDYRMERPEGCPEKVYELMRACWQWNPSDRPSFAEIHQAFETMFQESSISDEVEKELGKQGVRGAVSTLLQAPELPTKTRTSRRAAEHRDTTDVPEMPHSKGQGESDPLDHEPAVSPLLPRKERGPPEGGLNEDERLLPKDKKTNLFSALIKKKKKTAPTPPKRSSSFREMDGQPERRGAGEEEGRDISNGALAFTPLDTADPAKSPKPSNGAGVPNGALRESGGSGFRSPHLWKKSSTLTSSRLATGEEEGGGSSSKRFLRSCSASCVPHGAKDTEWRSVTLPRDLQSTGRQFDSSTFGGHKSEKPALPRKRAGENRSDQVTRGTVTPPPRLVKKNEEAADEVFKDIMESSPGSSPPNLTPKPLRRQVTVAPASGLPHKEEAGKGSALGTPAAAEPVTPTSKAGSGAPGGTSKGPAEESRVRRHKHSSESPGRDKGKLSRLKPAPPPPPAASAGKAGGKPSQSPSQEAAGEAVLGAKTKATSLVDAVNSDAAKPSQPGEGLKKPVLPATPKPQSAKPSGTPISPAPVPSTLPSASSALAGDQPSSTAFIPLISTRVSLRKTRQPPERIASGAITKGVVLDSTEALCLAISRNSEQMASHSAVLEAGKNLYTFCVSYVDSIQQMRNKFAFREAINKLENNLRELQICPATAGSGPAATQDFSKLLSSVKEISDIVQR
Chain of UniProt P54760 (whole entry, looked up): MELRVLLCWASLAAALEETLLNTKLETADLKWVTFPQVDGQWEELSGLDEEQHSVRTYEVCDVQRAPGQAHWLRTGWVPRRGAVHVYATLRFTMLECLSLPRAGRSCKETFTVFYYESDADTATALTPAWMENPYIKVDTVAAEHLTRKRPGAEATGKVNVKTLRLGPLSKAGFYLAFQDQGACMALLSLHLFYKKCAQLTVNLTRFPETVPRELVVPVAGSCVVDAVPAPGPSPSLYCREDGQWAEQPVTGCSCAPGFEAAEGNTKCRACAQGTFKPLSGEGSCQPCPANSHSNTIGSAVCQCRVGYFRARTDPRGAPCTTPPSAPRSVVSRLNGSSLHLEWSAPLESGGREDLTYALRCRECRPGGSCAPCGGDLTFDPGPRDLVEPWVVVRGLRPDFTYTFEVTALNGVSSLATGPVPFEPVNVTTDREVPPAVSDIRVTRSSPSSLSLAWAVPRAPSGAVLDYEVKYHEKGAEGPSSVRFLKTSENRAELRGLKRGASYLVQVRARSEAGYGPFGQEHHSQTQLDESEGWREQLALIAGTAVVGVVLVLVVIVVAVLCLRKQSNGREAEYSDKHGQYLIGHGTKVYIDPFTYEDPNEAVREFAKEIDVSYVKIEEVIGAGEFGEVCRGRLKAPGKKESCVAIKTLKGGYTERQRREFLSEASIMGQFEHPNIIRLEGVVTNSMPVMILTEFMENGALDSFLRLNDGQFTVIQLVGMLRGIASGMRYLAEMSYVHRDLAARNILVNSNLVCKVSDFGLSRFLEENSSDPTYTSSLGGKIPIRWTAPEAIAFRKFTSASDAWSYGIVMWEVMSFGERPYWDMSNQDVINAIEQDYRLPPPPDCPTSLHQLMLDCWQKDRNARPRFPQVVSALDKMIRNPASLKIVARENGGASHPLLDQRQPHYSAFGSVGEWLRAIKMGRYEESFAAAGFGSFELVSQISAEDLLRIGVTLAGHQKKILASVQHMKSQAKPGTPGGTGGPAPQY
Chain of UniProt Q8IU80 (whole entry, looked up): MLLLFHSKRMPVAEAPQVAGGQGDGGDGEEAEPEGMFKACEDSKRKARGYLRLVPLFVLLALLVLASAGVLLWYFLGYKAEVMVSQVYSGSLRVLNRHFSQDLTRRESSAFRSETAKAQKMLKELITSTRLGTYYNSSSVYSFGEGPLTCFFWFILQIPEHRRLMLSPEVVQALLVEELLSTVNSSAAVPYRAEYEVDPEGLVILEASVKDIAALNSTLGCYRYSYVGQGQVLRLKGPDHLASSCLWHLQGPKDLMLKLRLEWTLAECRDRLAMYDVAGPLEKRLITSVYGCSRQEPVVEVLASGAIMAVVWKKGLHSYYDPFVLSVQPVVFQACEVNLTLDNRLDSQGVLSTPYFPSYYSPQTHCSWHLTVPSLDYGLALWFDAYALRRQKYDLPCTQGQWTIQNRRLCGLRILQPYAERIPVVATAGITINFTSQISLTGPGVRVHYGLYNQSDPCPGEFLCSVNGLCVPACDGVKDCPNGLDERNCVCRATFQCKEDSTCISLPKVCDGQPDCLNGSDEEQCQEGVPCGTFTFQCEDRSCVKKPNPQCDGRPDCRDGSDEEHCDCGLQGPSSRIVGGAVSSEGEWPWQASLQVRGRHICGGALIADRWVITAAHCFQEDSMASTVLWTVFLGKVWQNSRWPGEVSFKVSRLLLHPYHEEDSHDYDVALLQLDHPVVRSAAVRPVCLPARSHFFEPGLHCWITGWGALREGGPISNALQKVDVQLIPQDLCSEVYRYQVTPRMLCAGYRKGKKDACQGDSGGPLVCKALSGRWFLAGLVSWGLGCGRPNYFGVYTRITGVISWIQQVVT
Chain of UniProt Q9NWZ3 (whole entry, looked up): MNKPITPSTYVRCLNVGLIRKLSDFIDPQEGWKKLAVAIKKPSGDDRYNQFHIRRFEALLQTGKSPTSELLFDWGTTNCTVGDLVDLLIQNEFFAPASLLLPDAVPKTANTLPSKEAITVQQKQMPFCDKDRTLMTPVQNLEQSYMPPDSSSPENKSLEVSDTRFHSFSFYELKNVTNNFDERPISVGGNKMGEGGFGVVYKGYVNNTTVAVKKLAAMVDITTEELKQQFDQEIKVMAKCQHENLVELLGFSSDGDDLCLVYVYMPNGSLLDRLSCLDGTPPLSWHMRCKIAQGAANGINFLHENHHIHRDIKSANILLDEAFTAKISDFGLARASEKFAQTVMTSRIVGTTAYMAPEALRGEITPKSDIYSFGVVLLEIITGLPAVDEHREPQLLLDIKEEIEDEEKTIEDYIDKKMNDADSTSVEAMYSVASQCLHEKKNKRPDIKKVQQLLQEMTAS
Chain of UniProt P10721 (whole entry, looked up): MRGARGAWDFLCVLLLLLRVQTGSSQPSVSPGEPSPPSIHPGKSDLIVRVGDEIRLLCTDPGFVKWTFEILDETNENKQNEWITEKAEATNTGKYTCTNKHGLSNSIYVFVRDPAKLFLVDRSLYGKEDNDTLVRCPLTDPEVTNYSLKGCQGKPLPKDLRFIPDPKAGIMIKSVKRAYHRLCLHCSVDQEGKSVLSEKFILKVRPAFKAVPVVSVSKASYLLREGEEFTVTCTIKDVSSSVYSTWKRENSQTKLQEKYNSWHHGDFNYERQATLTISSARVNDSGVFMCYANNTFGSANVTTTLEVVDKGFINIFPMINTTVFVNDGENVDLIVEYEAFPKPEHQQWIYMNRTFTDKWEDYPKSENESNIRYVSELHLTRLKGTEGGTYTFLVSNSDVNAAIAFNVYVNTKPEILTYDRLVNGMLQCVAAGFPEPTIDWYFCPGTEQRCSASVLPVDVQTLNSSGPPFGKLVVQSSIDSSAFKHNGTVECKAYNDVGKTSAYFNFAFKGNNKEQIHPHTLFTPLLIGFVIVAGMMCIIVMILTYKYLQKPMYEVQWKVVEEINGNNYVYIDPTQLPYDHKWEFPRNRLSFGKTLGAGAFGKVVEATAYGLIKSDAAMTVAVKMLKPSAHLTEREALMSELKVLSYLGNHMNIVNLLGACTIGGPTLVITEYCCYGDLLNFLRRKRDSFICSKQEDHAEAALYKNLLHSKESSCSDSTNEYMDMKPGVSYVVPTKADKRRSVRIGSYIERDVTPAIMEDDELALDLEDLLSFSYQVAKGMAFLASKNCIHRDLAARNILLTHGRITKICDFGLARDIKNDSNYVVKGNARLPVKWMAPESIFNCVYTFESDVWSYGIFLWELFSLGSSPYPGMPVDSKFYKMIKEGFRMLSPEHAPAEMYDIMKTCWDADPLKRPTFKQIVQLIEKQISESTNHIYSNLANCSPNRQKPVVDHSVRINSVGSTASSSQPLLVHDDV

Structure (SMILES)	tested on	assay	conditions	measurement	result
CCCN(O)N=Nc1ccc(S(=O)(=O)Nc2onc(C)c2C)cc1		ABTS scavenging	60 µg/mL	inhibition	29.8%
CC[C@H](C)[C@H](NC(=O)[C@H](CCC(N)=O)NC(=O)[C@H](CC(C)C)NC(=O)[C@H](CCSC)NC(=O)[C@H](CCCCN)NC(=O)[C@H](CO)NC(=O)[C@H](CO)NC(=O)[C@H](CCSC)NC(=O)[C@H](CC(C)C)NC(=O)[C@H](CC(N)=O)NC(=O)[C@@H](NC(=O)[C@@H](NC(=O)[C@H](CO)NC(=O)[C@H](CC(C)C)NC(=O)[C@H](CS)NC(=O)[C@H](CCCNC(=N)N)NC(=O)[C@H](CC(=O)O)NC(=O)[C@H](Cc1c[nH]c2ccccc12)NC(=O)[C@H](Cc1ccccc1)NC(=O)[C@H](C)NC(=O)[C@H](CCC(=O)O)NC(=O)[C@@H](N)CCCCN)C(C)C)[C@@H](C)CC)C(=O)N[C@@H](CC(N)=O)C(=O)N[C@@H](C)C(=O)O	CDK5 with p35	enzyme activity, inhibitor, radiometric	1 µM, 20 min	remaining activity	102%
O=C(C=Cc1ccccc1O)c1ccccc1O	CTSL	enzyme activity, inhibitor	100 µM	remaining activity	87.3%
CCCCC(=O)Nc1ccc(-c2ccc3ncn(CCC)c(=O)c3c2)cn1	Tyrosine-protein kinase ABL1, non-phosphorylated (ABL1, Homo sapiens, UniProt P00519, H396P)	binding, competition with immobilised ligand	0.5 µM	remaining binding	77%
Oc1ccc(/C=C\c2cc(O)cc(O)c2)cc1	CTSL	enzyme activity, inhibitor	100 µM	remaining activity	69.1%
C1=C/COCc2cc(ccc2OCCN2CCCC2)Nc2nccc(n2)-c2cccc(c2)COC/1	ABL1 (Homo sapiens, UniProt P00519, Y253F)	binding	0.1 µM	remaining binding	23%
CCCOc1ccc(OC)c(F)c1C(=O)c1ccc(C(=O)N[C@@H]2CNC[C@H]2NC(=O)c2ccc3[nH]ncc3c2)cc1	CDK5 with p35	enzyme activity, inhibitor	10 µM	remaining activity	16%
Cc1cc([C@@H](C)Nc2ccccc2C(=O)O)c2nc(N3CCC(F)(F)CC3)c(C#N)c(=O)n2c1	KIT (Homo sapiens, UniProt P10721)	binding, competition with immobilised ligand	1 µM	remaining binding	99%
COc1cc(-c2cncc3c2CN(C)Cc2cc(N4CCNCC4)ccc2-3)cc(OC)c1OC	IRAK4 (Homo sapiens, UniProt Q9NWZ3)	enzyme activity, inhibitor	1 µM	remaining activity	97%
C=CC(=O)N1CCC(COCC(=O)N2CCN(c3nc(-c4cnc(N)nc4C(F)F)nc(N4CCOC[C@@H]4C)n3)CC2)CC1	EPHB4 (Homo sapiens, UniProt P54760)	binding, competition with immobilised ligand	1 µM	remaining binding	100%
CNc1ncc2c(/C=C/C(=O)N3CCC(OC)CC3)nn(Cc3cccc(C(F)(F)F)c3)c2n1	ROCK2 (Homo sapiens, UniProt O75116)	enzyme activity, inhibitor, radiometric	1 µM	remaining activity	84%
CC(C)=CCc1cc2c(cc1O)oc(=O)c1c3ccc(O)cc3oc21	CTSL	enzyme activity, inhibitor	100 µM	remaining activity	113%
O=S(=O)(Nc1nccs1)c1ccc(N=NN(O)c2ccccc2)cc1		ABTS scavenging	60 µg/mL	inhibition	49.8%
NCCCC[C@H](NC(=O)[C@@H]1CCCN1C(=O)[C@@H]1CSSC[C@H](N)C(=O)N[C@@H](Cc2ccc(O)cc2)C(=O)N[C@@H](Cc2ccccc2)C(=O)N[C@@H](CCC(N)=O)C(=O)N[C@@H](CC(N)=O)C(=O)N1)C(=O)NCC(N)=O	CTSL	enzyme activity, inhibitor	100 µM	remaining activity	134%
N=C(N)NCCC[C@H](NC(=O)[C@H](CC1CCCCC1)NC(=O)[C@H](Cc1cscn1)NC(=O)CCc1ccccc1)C(=O)c1nc2ccccc2s1	ST14 (Homo sapiens, UniProt Q9Y5Y6)	enzyme activity, inhibitor	0.1 µM	remaining activity	10%
CC(C)OCCn1c(=S)[nH]c(=O)c2[nH]ccc21	Myeloperoxidase (MPO, Homo sapiens, UniProt P05164)	enzyme activity, inhibitor	0.226 µM	remaining activity	90.6%
CC[C@H](C)[C@H](NC(=O)[C@H](CCC(N)=O)NC(=O)[C@@H](NC(=O)[C@H](CCSC)NC(=O)[C@H](CCCCN)NC(=O)[C@H](CO)NC(=O)[C@@H](NC(=O)[C@H](CCSC)NC(=O)[C@H](CC(C)C)NC(=O)[C@H](CC(N)=O)NC(=O)[C@@H](NC(=O)[C@@H](NC(=O)[C@H](CO)NC(=O)[C@H](CC(C)C)NC(=O)[C@H](C)NC(=O)[C@H](CCCNC(=N)N)NC(=O)[C@H](CCC(=O)O)NC(=O)[C@H](Cc1ccc(O)cc1)NC(=O)[C@H](Cc1ccccc1)NC(=O)[C@H](C)NC(=O)[C@H](CC(N)=O)NC(=O)[C@@H](N)CCCCN)[C@@H](C)CC)[C@@H](C)CC)[C@@H](C)O)C(C)C)C(=O)N[C@@H](CC(N)=O)C(=O)N[C@H](C(=O)O)C(C)C	CDK5 with p35	enzyme activity, inhibitor, radiometric	500 µM, 20 min	remaining activity	16%
N=C(N)NCCC[C@H](NC(=O)[C@H](Cc1cccc2ccccc12)NC(=O)[C@H](Cc1cscn1)NC(=O)CCc1ccccc1)C(=O)c1nc2ccccc2s1	Transmembrane protease serine 6 (Homo sapiens, UniProt Q8IU80)	enzyme activity, inhibitor	0.1 µM	remaining activity	5%
